# Experimental data from different studies.
# Every numbered part comes from another study and shows a few of its results, in no order. Changes are numbered by the printed parent chain.

# Study 1
# Target: RNA binding protein fox-1 homolog 2, RRM domain, GST-SBP tag (RBFOX2, Homo sapiens, UniProt O43251-10, residues 100-194)
# Method: RNA Bind-n-Seq
# Form: RNA
# Medium: in vitro
# Tested at: 365 nM
# Notes: natural RNA segment, single round, ends assumed
# Reference: no-protein control
# Direction: higher = stronger binding
# All sequences stand within: GGGAGUUCUACAGUCCGACGAUC … UGGAAUUCUCGGGUGCCAA
# Target sequence (chain): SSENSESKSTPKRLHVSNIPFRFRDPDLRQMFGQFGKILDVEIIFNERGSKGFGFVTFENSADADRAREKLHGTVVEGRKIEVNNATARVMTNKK
Sequence,RBNS enrichment (R)
UCUGUCUUGUUUUUCACUUAUAUAACACUGUGAACUUCUAAAGCAAGAGGAUAAAAGAAGCAUGAAUGAAAAGAAUGACAUUUCAAAAAAAUGGUUCAAUGAAAAACUAU,7.56
CACAUUUUGCAUUCUGCAUUGUUGUCUUAGAGCACACACACGUUAGACAGCGGGUUGCAGCCACCCCACACUGACCGGCCGCUGAGGAGCAGAUAACCACUUGUUCUUUA,1.28
UAGGUUCAGCCAAGGUUUUAUAAGGCUGAUGUCAAUUUCUGUGUUGCCAAGCUCCAAGCCCCAUCUUCUAAAUGGCAAAGGAAGGUGGAUGGCCCCAGCACAGCUUGACC,0.376
UGGUUAUCUUCCAUUGUGUUUUUCUUUAUGGACAGGAGCUAAUGGAAGUGACAGUCAUGUUCAAAGGAAGCAUUUCUAGAAAAAAGGAGAUAAUGUUUUUAAAUUUCAUU,0.628
CUGUAUGAAACAAAAACAAAACCUGAUAUAUGCAAUAUCUGUCUGUCUGUCUGUACCCAUGGGCCUGGCUCAGCCAUUGGAGGCCCAGCCGAGGGUCCGGCAGGGCACAG,0.443
CUUGAUUGAGAUCAGAAUCCAUCAGGGUCUUAGACUCUGCCCCCCCUCACCCCACUCUCUUCCCAUGUUCGUUGAUCCACCCCUAUCUGAGAAACUCCAGCCUCAAGAAU,1.03
AAGGUCAUGAGGGCAGUCUCCCAGACUGCAGGCCUGAGUAAGUGUUGAGUUUUGCAUAAACACAAACUGUUCAUCCACAGCACUGCUCAAUCUCCUUCUAUCCCUCCUCC,0.294
AGCCCCGAAUUUGAAUCUCAAAGUCCAGGGUAUGAAUCUCAGAGCCCCGGGUAUGAACCGCAGAACUCUGGAGAUGGCGUUCAGAAUUCUGAGUUCAAAACCCAUAGCCC,0.645

# Study 2
# Target: CCND2, cyclin fold, Cln2 fusion (human)
# Method: yeast growth competition, sequencing
# Medium: yeast
# Notes: weak parent motif
# Reference: not given
# Direction: higher = stronger binding
# Starting sequence: viral docking peptide; KGVKRKLFAEDSS
Substitution,normalised enrichment score
L7Y,0.432
G2K,0.549
K4E,0.0586

# Mixed results
# HMGB2: HMGB2 (Homo sapiens, UniProt P26583)
# P1: PafA, mature enzyme, eGFP fusion (Elizabethkingia meningoseptica, UniProt Q9KJX5); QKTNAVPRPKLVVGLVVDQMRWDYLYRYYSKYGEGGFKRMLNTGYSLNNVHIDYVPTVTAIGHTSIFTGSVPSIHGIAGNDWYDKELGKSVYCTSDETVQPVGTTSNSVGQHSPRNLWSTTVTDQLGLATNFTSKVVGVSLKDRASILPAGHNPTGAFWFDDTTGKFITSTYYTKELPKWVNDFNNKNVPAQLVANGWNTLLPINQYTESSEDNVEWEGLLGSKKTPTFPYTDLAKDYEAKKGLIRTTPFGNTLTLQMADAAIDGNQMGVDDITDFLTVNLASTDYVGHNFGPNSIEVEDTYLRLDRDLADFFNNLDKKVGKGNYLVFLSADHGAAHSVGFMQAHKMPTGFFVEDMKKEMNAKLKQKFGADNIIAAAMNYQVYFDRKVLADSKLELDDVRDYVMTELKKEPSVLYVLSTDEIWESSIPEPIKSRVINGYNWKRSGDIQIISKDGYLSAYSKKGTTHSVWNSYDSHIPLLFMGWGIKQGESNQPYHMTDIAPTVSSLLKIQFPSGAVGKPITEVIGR
Molecule,tested on,test,test system,conditions,scale,measurement,value
P1 M20V,"inorganic phosphate, free oxyanion",microfluidic competitive inhibition,"in vitro, cell-free expressed","not given, derived from inhibition constants, unchanged parent 615000 nM",lower = stronger binding,phosphate dissociation constant,321 µM
"HMGB3 (Homo sapiens, UniProt O15347)",HMGB2,cross-linking MS,,hits only,,interaction screen,cross-linked
P1 E406G,"inorganic phosphate, free oxyanion",microfluidic competitive inhibition,"in vitro, cell-free expressed","not given, derived from inhibition constants, unchanged parent 615000 nM",lower = stronger binding,phosphate dissociation constant,535 µM
"PhoQ, residues 284 288 289 292 302 303 GNNTDL","PhoP, residues 12 14 15 18 19 LWHCS (Escherichia coli, UniProt P23836)","Sort-seq, measured: YFP reporter",E. coli,"PhoQ-PhoP variant library, with: 10 µM Mg2+","reference: high Mg2+ state, higher = stronger signaling",fold induction,1.67
"HMGB1 (Homo sapiens, UniProt P09429)",HMGB2,cross-linking MS,,hits only,,interaction screen,cross-linked
